Assay results of several laboratories.
Protocols differ between the studies behind these lines.
Matrix: plasma

`COC1C(c2ccc(Cl)c(Cc3ccc(OC4CCOC4)cc3)c2)OC(CO)C(O)C1O` (centres unmarked) gave an AUC of 3730 ng·h/mL (Sprague-Dawley rat; intravenous, 2.5 mg/kg).
For `CCC(CC)n1c(Cc2ccco2)nc2cc(C(=O)N[C@@H](CC(=O)O)c3ccccc3)ccc21`, the AUC(0-t) was 798 ng·h/mL (male Sprague-Dawley rat; intravenous, 1 mg/kg).
`COc1cc(OC)c2c(=O)cc(-c3cc(C)c(OCCCN4CCN(C)CC4)c(C)c3)oc2c1` gave an AUC(0-t) of 4540 ng·h/mL (male Sprague-Dawley rat; intravenous, 10 mg/kg, single dose).
With `C/C(N)=N/C(=N\S(=O)(=O)c1ccc(C(F)(F)F)cc1)N1C[C@H](c2ccccc2)C(c2ccc(Cl)cc2)=N1` the AUC(0-inf) was 6270 ng·h/mL (male Sprague-Dawley rat; intravenous, 3 mg/kg).
`Cc1cc2c(cc1O)C=C1C=CC(=O)C(C)(C)[C@H]1CC2` gave an AUC(0-t) of 619 ng·h/mL (male Sprague-Dawley rat; intravenous, 2 mg/kg).
`O=c1c(-c2ccc(Cl)c(CN3CCOCC3)c2)coc2cc(O)ccc12` gave an AUC(0-t) of 458 ng·h/mL (male Sprague-Dawley rat; oral, 10 mg/kg).
For `CCC(CC)n1c(Cc2cccs2)nc2cc(C(=O)N[C@@H](CC(=O)O)c3ccccc3)ccc21`, the AUC(0-inf) was 3650 ng·h/mL (male Sprague-Dawley rat; intraperitoneal, 10 mg/kg).
For `Cc1cccc(Cn2ncc3c4cc(F)c(CN(C)C)cc4n(C)c3c2=O)n1`, the AUC(0-inf) was 2900 ng·h/mL (Sprague-Dawley rat; oral, 10 mg/kg).
With `OC1(C(F)(F)F)CCN(c2nc(Nc3ccnc(C(F)(F)F)c3)nc(-c3cccc(C(F)(F)F)n3)n2)C1` (centres unmarked) the AUC(0-inf) was 40300 ng·h/mL (Sprague-Dawley rat; oral, 20 mg/kg).
`CC1(C)C(NC(=O)C(=NOC2(C(=O)O)CC2)c2csc(N)n2)C(=O)N1OS(=O)(=O)O` (centres unmarked) gave an AUC of 20900 ng·h/mL (rat; intravenous, 10 mg/kg, single dose).
`O=C(C1CCN(c2nnnn2-c2ccccc2)CC1)N1CCCc2ccccc21` gave an AUC(0-inf) of 511 ng·h/mL (male Sprague-Dawley rat; intravenous, 1 mg/kg).
The AUC(0-t) of `COC(=O)C1=CNC=C(C(=O)OC)C1c1ccc(F)c(C(F)(F)F)c1` is reported as 832 ng·h/mL (male Sprague-Dawley rat; intravenous, 5 mg/kg).
With `COc1cc(-c2cc(=O)c3ccc(OCCCn4c(Cl)nc5ccccc54)cc3o2)cc(OC)c1OC` the AUC(0-inf) was 192 ng·h/mL (male Sprague-Dawley rat; intravenous, 10 mg/kg).
The AUC(0-inf) of `CCCN(C)c1cc(C(F)(F)F)nc(SCCC(=O)NCc2ccco2)n1` is reported as 929 ng·h/mL (male Wistar rat; intraperitoneal, 25 mg/kg, single dose).
`CC(C)C[C@H](NC(=O)[C@H](CCCN)NC(=O)CNC(=O)[C@@H](NC(=O)[C@H](C)NC(=O)[C@@H]1CSCSC[C@H](NC(=O)CC[C@H](N)C(=O)O)C(=O)N[C@@H](CC(N)=O)C(=O)N[C@@H]([C@@H](C)O)C(=O)N[C@@H](C)C(=O)N[C@@H]([C@@H](C)O)C(=O)N1)[C@@H](C)O)C(=O)N[C@@H](C)C(=O)N[C@@H](CCC(=O)O)C(=O)N[C@@](C)(Cc1ccccc1)C(=O)N[C@@H](CC(C)C)C(=O)N[C@H](C(=O)N[C@@H](CCCNC(=N)N)C(=O)N[C@@H](CO)C(=O)N[C@@H](CO)C(=O)N[C@@H](CC(N)=O)C(=O)N(C)[C@@H](CC(N)=O)C(=O)N[C@@H](Cc1ccccc1)C(=O)NCC(=O)N1CCC[C@H]1C(=O)N[C@@H](CCCCNC(=O)CC[C@H](NC(=O)CC[C@H](NC(=O)CCCCCCCCCCCCCCCCCCC(=O)O)C(=O)O)C(=O)O)C(=O)N[C@@H](CC(C)C)C(=O)N1CCC[C@H]1C(=O)N1CCC[C@H]1C(=O)N[C@H](C(=O)N[C@@H](CCC(=O)O)C(=O)N[C@H](C(=O)NCC(=O)N[C@@H](CO)C(=O)N[C@@H](CC(N)=O)C(=O)N[C@H](C(=O)N[C@@H](Cc1ccc(O)cc1)C(N)=O)[C@@H](C)O)C(C)C)[C@@H](C)O)C(C)C` gave an AUC(0-inf) of 14.2 µM·h (male Sprague-Dawley rat; subcutaneous, 30 nmol/kg, single dose).
The AUC(0-t) of `COc1cc(C2C3=C(COC3=O)N(CCO)c3cc4c(cc32)CCC4)cc(OC)c1OC` (centres unmarked) is reported as 2780 ng·h/mL (female Sprague-Dawley rat; intraperitoneal, 50 mg/kg).
`CN1CCC[C@@H]1C(=O)N[C@@H](Cc1ccc(-c2ccccc2)cc1)B(O)O` has an AUC(0-t) of 1.7 µM·h (male Sprague-Dawley rat; intravenous, 1 mg/kg).

A few entries again:
With `OC1(C(F)(F)F)CCN(c2nc(Nc3ccnc(C(F)(F)F)c3)nc(-c3cccc(C(F)(F)F)n3)n2)C1` (centres unmarked) the AUC(0-inf) was 40300 ng·h/mL (Sprague-Dawley rat; oral, 20 mg/kg).
